Assay results pooled from the literature.
Every numbered part comes from another study and shows a few of its results, in no order.

Study 1
Target: RNA binding protein fox-1 homolog 2, RRM domain, GST-SBP tag (RBFOX2, Homo sapiens, UniProt O43251-10, residues 100-194)
Technique: RNA Bind-n-Seq
Form: RNA
Sample: in vitro
Concentration: 365 nM
Notes: natural RNA segment, single round, ends assumed
Baseline: no-protein control
Direction: higher = stronger binding
Residues (chain): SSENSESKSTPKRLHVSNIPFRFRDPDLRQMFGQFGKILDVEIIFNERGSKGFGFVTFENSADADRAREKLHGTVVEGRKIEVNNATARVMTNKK
Sequence	RBNS enrichment (R)
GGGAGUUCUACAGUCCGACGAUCCCUUGUCGUGAAUUCCCUGUUUAUCACUUCCAUGCAUGGUUUUAUGCUUCUCAUUUGUUUAUGUAUUCAUGAAUACUGCAUAGUCCUGAUUCAGAGACUUUUGCUUUGCUUGGAAUUCUCGGGUGCCAA	0.948
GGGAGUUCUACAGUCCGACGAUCGGAAGCCUGCUGGCCUCGGGUAUGGGCUUCUCUGCCAGUCUCUGGACUGGCCCUUCAAGGAGGUGGAAGUGGUUUUCUCUGUGUUUGAGUCAUUGAGUAUUGAAGCCAUGUGGAAUUCUCGGGUGCCAA	0.326
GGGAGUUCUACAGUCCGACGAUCUGAUCAUUUUAGACACUGGGAGAAGAGAACCUCAAACUAGGAGGAAAAGACAGAGCCUCCACUUAGUUUUGGGAGGGGAUGGCAGACAGUCAAGGAGAUGAGCGUCCUAAUGGAAUUCUCGGGUGCCAA	0.795
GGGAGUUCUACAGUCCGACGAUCCAACAGUUUGAGGGAGCAUUGCCCCUUUGUUCCUGUGAGGACUGGCAGGCUUUGACUGACCUCUCAUUCCCUUUGCACUGCUUCAGGUUAGUUCUAGUCCAUAAUGGCCUUGGAAUUCUCGGGUGCCAA	0.231
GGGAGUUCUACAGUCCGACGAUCCAUAGUUAGAAUCACUAUGCAUCUGUCUGUCCACACAGGAAGUGCUAUAGCUCUCAAGUGCUCUAGAGGCAGUUGGAAAGGAAGGAAUGCAUGCUUAUGUGAGCAGCUGGUGGAAUUCUCGGGUGCCAA	1.08
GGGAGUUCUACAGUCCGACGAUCCCGAGCACAGCUGGUCCUACCCCAAGUCAUGGUGUGCUGAGUGACUGACUGAGGGGCCAUUGAGAGCCGGUGGGCUCUGCCAUGGAACCCUUCCGUUGAUUAGCAAUGACUGGAAUUCUCGGGUGCCAA	0.343
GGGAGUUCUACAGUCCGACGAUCAAACCUGGAGUCCUUAUCCUCCCCUCUGUAAGUGUUUUAGGGUCUGGCUUUUGCAGGCACCCUCUGACCUCAGCAGAGCUCCUGGGCCUGCUGCCUGCACACCACAUCGCUGGAAUUCUCGGGUGCCAA	0.604
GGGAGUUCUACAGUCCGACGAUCAUGUAUAAAGAAAUUAUUCUUCAUUCCAAUAUAUGAAGAUACUUGCCUUUUCAGCAGCGAUGGUCUCAGUGUGCUUGGGGCAGGAGUACAUAGUUUCUAUGAGCGAUAUAUGGAAUUCUCGGGUGCCAA	0.346

Study 2
Target: Max dimerization protein 1, bHLH-zipper, MAX partner unstated (MXD1, Homo sapiens, UniProt Q05195, residues 56-136)
Technique: protein-binding microarray
Form: double-stranded DNA, one strand shown
Sample: in vitro
Concentration: not given
Notes: k-mer, scored over probes, only values ≥0.25
Direction: higher = stronger binding
Construct (chain): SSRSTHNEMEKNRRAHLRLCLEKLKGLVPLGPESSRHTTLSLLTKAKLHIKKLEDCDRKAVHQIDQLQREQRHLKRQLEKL
Sequence	E-score
CACGGTGC	0.314
CGTGTTAC	0.295
CGGCATGC	0.361
AGTACACG	0.349
CACCATGC	0.399
CTCCCCAC	0.298
GCATGGCC	0.401
TCGTGTAA	0.284
ACCAGGCG	0.254
ACCATGCC	0.405
CAGGTGGG	0.328
ACGCGTGG	0.432
GCGCGCGC	0.292
AATGTGCA	0.262
CGCGTGGA	0.404
CTCATGGA	0.253
AAAACATG	0.264
ACCCCTCC	0.332
AGCGCGTG	0.36

Study 3
Target: RING finger protein unkempt homolog, zinc fingers 1-6, GST-SBP tag (UNK, Homo sapiens, UniProt Q9C0B0, residues 30-357)
Technique: RNA Bind-n-Seq
Form: RNA
Sample: in vitro
Concentration: not given
Notes: RNA with constant flanks, ends assumed
Baseline: input RNA pool
Direction: higher = stronger binding
Target sequence (chain): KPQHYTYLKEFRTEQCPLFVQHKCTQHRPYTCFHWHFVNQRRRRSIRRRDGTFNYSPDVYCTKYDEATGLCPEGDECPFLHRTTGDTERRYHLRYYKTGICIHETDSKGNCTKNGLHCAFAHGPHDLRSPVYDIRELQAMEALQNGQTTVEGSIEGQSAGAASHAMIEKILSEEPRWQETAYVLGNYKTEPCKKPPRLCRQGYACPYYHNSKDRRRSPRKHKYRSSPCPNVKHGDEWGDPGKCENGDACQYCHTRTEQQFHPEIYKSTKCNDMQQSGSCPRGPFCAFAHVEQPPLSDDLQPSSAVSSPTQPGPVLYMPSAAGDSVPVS
Sequence	bound/input enrichment
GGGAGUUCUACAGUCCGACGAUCUCUUAUAAUAGUCUAGUGCUAUAGAUGUUCAUGGAUUGUUUGAUGCUCCAUAACUCCUCAUUCCGAUAACUUUUUAGUAACAGCAUCUUCCAGUGGCGACAAAAUAGUUGUCUCAAGUUGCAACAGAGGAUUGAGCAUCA	0.345 ratio
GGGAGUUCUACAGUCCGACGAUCUUGUCCCCAGGUGGGGGGAAGCAGGGGAGAGAAAAUGGUAGCCAUUUUUACAUUGUUUUGUACCGUAUUUAUUGAUUCAGGAAACAAACACAAAAUUCUGAAUAAAAUGACUUGGAAACUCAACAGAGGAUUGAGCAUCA	0.375 ratio
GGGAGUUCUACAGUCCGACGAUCAGUAGUUUUAAGCUUGUUUGCACAGUUCUUUUUUUCCAUUGGAAAUGGAAUUCAUUGCCUCCGGUCUUUUUAAAUAGUGUAUUAUUAUCGUUGGGGCUGGCUCUAUGCUUGAAAACCAGUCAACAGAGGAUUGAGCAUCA	4.65 ratio
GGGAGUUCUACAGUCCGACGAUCACUCCCUGGUUCUGGCCCAAAGACAAGACCAAAGUCUGGUCUAAGCCCAAAGAAGAGCCCAACCGCCGGUCCUGGUUUAGGUCUAAGAAAGAAGUCCGUGUUGAAUCCACUUCUGGGUCUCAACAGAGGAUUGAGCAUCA	0.232 ratio
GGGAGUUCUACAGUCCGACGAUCUCUGAGGAAAGGAGACCCUCUCCCAAGGAGUCCAAGGAGGCAGAUGUGGCCACAGUCCGUUCCGGGGAAAAAAGGAGUCACCAUCUAGCUCACUACAGGGCUUCAGAAGAAGAACCUGAACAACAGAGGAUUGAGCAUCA	0.096 ratio
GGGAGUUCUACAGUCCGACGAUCGCCGGAGAUGCCCUGGAUGGCGGCUUUCAGGCGCGGUGUGAGAAGAGCCCUUUCGACCAGCCCGCUUUUAUCGAAGAGCUGUUUUCGCUGAUGGUUGUCAAUCGACUGACCGAAGAGCUCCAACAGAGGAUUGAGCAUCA	0.178 ratio
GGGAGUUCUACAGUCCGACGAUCGCUGCGCAAAUGAAUGGUAAACCAGAAUCCAGUUCUGUGGUUCGAACUAGGAGCAACCGUGCCGCUGCCGAUCCAGUUGUCACCGAGCAGCCCUCUACAUCAUCAGCCACAAAAGCUUUUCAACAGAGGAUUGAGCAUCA	0.185 ratio
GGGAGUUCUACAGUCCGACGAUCGGAUAUUCUAAAAUUCAGAUUUACUUAACUGAUCCAGACUUUAAGGGUUUUAUACGAAUCCGCUGUUGCCAAUACUGUAAGGUAGAAUUUCAUAUGAACUGCUGGAAAAAGUUAAAAACACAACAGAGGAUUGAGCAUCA	0.21 ratio

Study 4
Target: Ras GTPase-activating protein-binding protein 1, full length (G3BP1, Homo sapiens, UniProt Q13283)
Chain of UniProt Q13283 (whole entry, looked up): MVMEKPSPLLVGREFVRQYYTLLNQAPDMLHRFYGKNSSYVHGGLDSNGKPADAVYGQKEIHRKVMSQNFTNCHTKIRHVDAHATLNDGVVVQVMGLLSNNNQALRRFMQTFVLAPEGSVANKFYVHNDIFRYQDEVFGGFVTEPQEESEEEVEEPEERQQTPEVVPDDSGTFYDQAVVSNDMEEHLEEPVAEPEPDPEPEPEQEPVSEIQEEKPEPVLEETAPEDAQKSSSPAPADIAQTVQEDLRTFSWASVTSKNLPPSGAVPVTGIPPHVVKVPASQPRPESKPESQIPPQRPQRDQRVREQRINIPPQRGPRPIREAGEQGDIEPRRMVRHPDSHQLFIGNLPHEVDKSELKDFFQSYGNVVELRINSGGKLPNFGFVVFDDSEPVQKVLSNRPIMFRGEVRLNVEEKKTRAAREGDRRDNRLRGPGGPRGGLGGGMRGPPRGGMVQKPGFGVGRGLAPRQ
Technique: RNA Bind-n-Seq
Form: RNA
Sample: in vitro
Concentration: 200 nM
Notes: whole 134-nt RNA, ends assumed
With: 150 mM KCl
Baseline: input library
Direction: higher = stronger binding
Sequence	log2 enrichment
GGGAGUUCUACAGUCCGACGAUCCUCAAGUCCUGUGCUACACAUCGUAUGUACCGAAUCGGUGGUUUUUUUGGUGGAAAGUAUUAUGUUACGCCGUUCGGAUCUGCACUUCCAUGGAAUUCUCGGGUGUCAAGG	-0.302
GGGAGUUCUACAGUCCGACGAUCGUCCUGUGCUACACAUCGUAUGUACCGAAUCAAACCCCCAAAUUUAAAUUUUUUUAAAAAAGUAUUAUGUUACGCCGUUCGGAUCUGCACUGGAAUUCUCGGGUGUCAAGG	0.123
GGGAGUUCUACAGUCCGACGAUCAAGUCCUGUGCUACACAUCGUAUGUACCGAAUCGGUUUUUGGUUUUUGGAAAAAGGAAAGUAUUAUGUUACGCCGUUCGGAUCUGCACUUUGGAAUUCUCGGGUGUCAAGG	-1.36
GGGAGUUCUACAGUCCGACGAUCUCAAGUCCUGUGCUACACAUCGUAUGUACCGAAUCGGGUGGGAAAGGGAAAGGGAAAGUAUUAUGUUACGCCGUUCGGAUCUGCACUUCCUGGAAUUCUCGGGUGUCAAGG	0.791
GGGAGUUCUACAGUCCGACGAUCCACAGACCACACGCACCCACACAGACACAGAGGGAAGGGGUUGGGAUGGGGACAGGGUGCACAGCAGGGCGGGGUAGGACCCCAGCCCCUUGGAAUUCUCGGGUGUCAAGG	1.78
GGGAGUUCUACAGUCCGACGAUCCUGUGCUACACAUCGUAUGUACCGAAUCGGGGAAAAAGGGGUUUUUGGGGUUUUUUUGGGGAAAGUAUUAUGUUACGCCGUUCGGAUCUGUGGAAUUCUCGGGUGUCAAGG	-0.23
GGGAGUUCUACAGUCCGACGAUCCCUGUGCUACACAUCGUAUGUACCGAAUCGGGGCCCCCCGGGCCCCCCGGGGCCCCCCGGAAAGUAUUAUGUUACGCCGUUCGGAUCUGCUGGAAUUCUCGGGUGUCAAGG	-0.63
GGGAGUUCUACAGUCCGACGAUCGUCCUGUGCUACACAUCGUAUGUACCGAAUCGGGGUUUGGGGAAAAAGGGGAAAGGGGAAAGUAUUAUGUUACGCCGUUCGGAUCUGCACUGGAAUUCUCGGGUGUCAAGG	0.529
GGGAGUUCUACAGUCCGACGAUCACCAUGCAGGUGGGCAUCUUUGGGAAGUGGGGCAAGGGGGGGAUAGGGAGGAAAGUAACACUUUGGGAACAGGUGGUCCCAGGUCGUUUCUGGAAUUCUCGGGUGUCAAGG	1.24

Repeated from above (study 1):
Sequence	RBNS enrichment (R)
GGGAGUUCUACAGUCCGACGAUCUGAUCAUUUUAGACACUGGGAGAAGAGAACCUCAAACUAGGAGGAAAAGACAGAGCCUCCACUUAGUUUUGGGAGGGGAUGGCAGACAGUCAAGGAGAUGAGCGUCCUAAUGGAAUUCUCGGGUGCCAA	0.795
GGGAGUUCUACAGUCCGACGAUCCAACAGUUUGAGGGAGCAUUGCCCCUUUGUUCCUGUGAGGACUGGCAGGCUUUGACUGACCUCUCAUUCCCUUUGCACUGCUUCAGGUUAGUUCUAGUCCAUAAUGGCCUUGGAAUUCUCGGGUGCCAA	0.231
